Results from different studies.
Parts stem from different laboratories: compare values within a part only. Substitutions count along the parent as printed.

Study 1
Target: Centromere-binding protein 1, full length, N-terminal tag (CBF1, Saccharomyces cerevisiae, UniProt P17106, residues 1-351)
Sequence of UniProt P17106 (whole entry, looked up): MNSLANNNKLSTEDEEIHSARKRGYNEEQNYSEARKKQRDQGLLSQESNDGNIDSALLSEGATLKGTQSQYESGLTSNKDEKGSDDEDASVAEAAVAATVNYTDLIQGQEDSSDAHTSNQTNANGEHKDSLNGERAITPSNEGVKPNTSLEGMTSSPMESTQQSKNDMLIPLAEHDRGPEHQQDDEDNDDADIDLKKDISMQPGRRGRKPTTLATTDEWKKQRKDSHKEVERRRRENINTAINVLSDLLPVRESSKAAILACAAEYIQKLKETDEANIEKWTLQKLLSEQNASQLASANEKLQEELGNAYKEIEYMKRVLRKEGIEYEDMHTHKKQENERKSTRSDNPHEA
Technique: protein-binding microarray
Form: double-stranded DNA, one strand shown
Medium: in vitro
Tested at: 0.8 µM
Notes: whole 60-bp probe, no competitor
Reading: higher = stronger binding
| Strand | fluorescence intensity [a.u.] |
| --- | --- |
| CTACTTCAATGTCATCACGTACTTAATTATGTTTTCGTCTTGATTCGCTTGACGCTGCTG | 770 |
| GAAACAATTCCCTCCCACGTATAAACACATACATAGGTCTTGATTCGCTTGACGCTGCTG | 543 |
| CTATTCTCAATTCATGTGGCTTCAAACATTTAATTCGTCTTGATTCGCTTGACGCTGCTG | 631 |
| GAACTGCCTGCCTATCTGATGCTTTGCCACCACTAGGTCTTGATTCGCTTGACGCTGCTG | 499 |
| CTAGCAAGGATTGATAACGTGATAGGGTAATGATTCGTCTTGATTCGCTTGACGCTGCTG | 2080 |
| GAAATGAACGCTACTGATGATGCAAATGAAGCTTAGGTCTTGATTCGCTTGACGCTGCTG | 555 |
| CTAACTGGCGTTCCTACCGTGATGGCAGCGATATTCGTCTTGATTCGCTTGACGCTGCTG | 536 |
| TGTACGAAGCTATAACGTGTGATTATAGTAGTTAGGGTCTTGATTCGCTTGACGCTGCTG | 572 |
| GAATAAGAAAAACACCTGACAAATAATAATACCTAGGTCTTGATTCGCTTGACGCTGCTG | 2300 |
| CTACGATATGCCCGGAACGTGCTTCCCATTGGTTTCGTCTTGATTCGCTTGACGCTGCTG | 798 |
| GAACTTCCGCTAACGCTGATGGAGTATTTTTTTTAGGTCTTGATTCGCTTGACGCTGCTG | 500 |
| CTATACTATTTGTCTCCCACGTGCTGCATTGTCTTCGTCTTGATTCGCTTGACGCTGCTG | 6170 |
| GAATCTATTGGTTGGCTGATGTTAGTAATTACTTAGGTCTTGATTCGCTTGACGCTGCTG | 537 |
| CCTAACTACTATAATCATGAAACATAGCTTCGTACAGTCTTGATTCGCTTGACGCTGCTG | 521 |
| GAATATGTTCCGTGTAAGGTGATATTACTCAAATAGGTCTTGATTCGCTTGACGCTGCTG | 552 |
| GAATTTCATATATTTAATGTGACGACTCATATTTAGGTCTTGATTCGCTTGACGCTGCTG | 532 |
| GAAGACGGCAGCTGGCTCGTGGGATTTTTTCAATAGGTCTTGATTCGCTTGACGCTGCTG | 536 |
| TGTACGAAGCTATCAAATGTGTCTATAGTAGTTAGGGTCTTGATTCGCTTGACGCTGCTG | 525 |
| CTATACTCAAGAAGTCACGCTGTCATTTGATGGTTCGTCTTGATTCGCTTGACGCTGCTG | 1220 |

Study 2
Target: RING finger protein unkempt homolog, zinc fingers 1-6, GST-SBP tag (UNK, Homo sapiens, UniProt Q9C0B0, residues 30-357)
Sequence of UniProt Q9C0B0 (30-357, looked up): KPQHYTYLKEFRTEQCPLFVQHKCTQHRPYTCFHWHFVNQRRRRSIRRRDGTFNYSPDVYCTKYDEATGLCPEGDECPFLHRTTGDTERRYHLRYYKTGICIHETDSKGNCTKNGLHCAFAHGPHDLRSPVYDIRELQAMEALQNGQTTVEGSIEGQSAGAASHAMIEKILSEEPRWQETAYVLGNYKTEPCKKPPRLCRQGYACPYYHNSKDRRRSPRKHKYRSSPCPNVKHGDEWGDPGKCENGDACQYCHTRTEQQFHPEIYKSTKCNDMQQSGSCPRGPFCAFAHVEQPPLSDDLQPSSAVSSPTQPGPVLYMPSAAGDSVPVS
Technique: RNA Bind-n-Seq
Form: RNA
Medium: in vitro
Tested at: not given
Notes: RNA with constant flanks, ends assumed
Baseline: input RNA pool
Reading: higher = stronger binding
| Strand | bound/input enrichment |
| --- | --- |
| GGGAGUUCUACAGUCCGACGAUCGAUGAUGAUGAAGAAUCUGGACGAUUACGUUUUAAAACUGAAAGGAAAGAAGGAACAAUUAUCCGGCUUUCAGAUGUAACUAGAGAGAGAAGGAACAUUCCAGAAACUUUGGAACUUUCUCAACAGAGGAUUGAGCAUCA | 0.272 ratio |
| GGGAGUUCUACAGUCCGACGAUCAUACUGUGGAUAUUUGUGAAUUGUGUGGUUUGUUUGUUUGUUUUCUUUUAUGUACUGUUGACCCGUUAUGGCACUUACUGAUUAAACUUACACUGCUGCAGAUUGCUGUGUAACAAGCCACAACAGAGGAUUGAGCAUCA | 0.407 ratio |
| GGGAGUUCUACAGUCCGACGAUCGGUCCCGCCUGUGGCAGCAUCCUUGGGCCAGGGCCACAGCCGAUAUCUUAUACGACCUGUGUUCCGGACAUUUUUUAAAUCAUUGUGUCUAAGCAUCUCAGAGUCAAGUGUGCUUCUUUGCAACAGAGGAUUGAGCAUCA | 0.127 ratio |
| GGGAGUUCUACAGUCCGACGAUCUGGUAUCUCUUCUUAGUGUUCUAUUUAUCUUAUUUGCUAAUGGGAGCACUUCUUCCUUUGUCCGGCUGUGCUUUACUGAUAAAACCAAGUAUUGAAUAAAGAGAGUUAAUUAUCUUUUUACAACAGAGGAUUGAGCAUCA | 0.558 ratio |
| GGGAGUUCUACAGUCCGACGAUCUGUUUAUCCUGGCCUGCUCAGGUUUCAUUCUUACAGAACCCAGGACUCCUUGCCCAGGAACCGUACCACCCACAAUGAGCUGGGUCCUUCCUGCCAAUCACUUAUUAAGAACAUGCCUUACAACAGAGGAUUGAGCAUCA | 0.147 ratio |
| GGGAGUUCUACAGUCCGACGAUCAAGGAACUCCAGGUUGAACUGUCUGGCUGAAGCAAGGGAGGGUCUGGCACGCCCCACCAACCGUAAAUCCCCCUGCCUAUAUUAUAAUGGAUCAUGCGAUAUCAGGAUGGGGAAUGUAUGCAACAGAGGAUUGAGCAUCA | 0.277 ratio |
| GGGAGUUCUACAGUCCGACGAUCGGAAGGACUGCGCUGCAGGUUAUGAAACUUGGAAAUCCCGAGAUUGCCAGGAGACUGCUACUCCGAGGUGCUAAUCCCGAUUUGAAAGACCGAACUGGUUUCGCUGUCAUUCAUGAUGCGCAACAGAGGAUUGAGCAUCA | 0.143 ratio |
| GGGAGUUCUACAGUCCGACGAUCAACCACCUCAUCCAAAAUAUCCCGGGCUUCUGGGGGCAAGCAUUUCAGAACCAUCCCCAGCCCGCAUCCUUUCUGAAUAGCCAAGAGAAAGAGGUACUGAGCUACUUAAACAGCUUGGAACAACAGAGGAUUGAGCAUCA | 0.217 ratio |

Study 3
Target: Histone acetyltransferase KAT6A, both winged helices, GST fusion (KAT6A, Homo sapiens, UniProt Q92794, residues 1-181)
Technique: protein binding microarray
Form: double-stranded DNA, one strand shown
Medium: in vitro
Tested at: not given
Notes: 8-mer, flanks averaged, mean of 2 arrays, mostly near background
Baseline: not given
Reading: higher = stronger binding
Residues (chain): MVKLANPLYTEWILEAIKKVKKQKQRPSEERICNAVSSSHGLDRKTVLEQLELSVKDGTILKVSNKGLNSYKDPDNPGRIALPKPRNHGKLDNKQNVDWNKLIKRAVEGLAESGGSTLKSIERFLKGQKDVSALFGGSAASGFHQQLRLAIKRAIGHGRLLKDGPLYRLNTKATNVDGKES
| Strand | E-score |
| --- | --- |
| AAGCCTCT | -0.357 |
| CAGCGATC | 0.137 |
| ATAGTGCA | 0.0282 |
| GACCTTAA | -0.0529 |
| GGGAGGAA | -0.0385 |
| CTGCGGAC | 0.168 |
| GACAACGA | 0.0118 |
| CTATTTCA | -0.0351 |
| TCCGTACA | 0.242 |
| ACCGTGCA | -0.0393 |
| CTAACGAA | 0.0467 |
| AGGCCTGG | -0.0637 |
| GCAGGCAA | -0.0147 |
| AAAGACAT | -0.0814 |
| CTAATATA | -0.0261 |
| CAATCTGG | -0.209 |
| AAAACTCA | -0.163 |
| AGGTCCGG | -0.0136 |

Study 4
Target: ABI1, truncated, D143A, DHFR fusion (Arabidopsis thaliana)
Technique: DHFR PCA, deep sequencing
Medium: yeast
Notes: methotrexate growth selection, single substitutions
Together with: (+)-ABA 710 µM
Baseline: wild-type fitted maximum
Reading: higher = stronger binding
Parent: PYL1, truncated, DHFR fusion (Arabidopsis thaliana); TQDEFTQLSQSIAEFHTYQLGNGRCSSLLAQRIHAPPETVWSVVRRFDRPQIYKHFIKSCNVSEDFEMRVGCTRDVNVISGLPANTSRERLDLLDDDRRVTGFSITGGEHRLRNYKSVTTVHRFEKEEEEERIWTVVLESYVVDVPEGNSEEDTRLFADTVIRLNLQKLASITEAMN; partner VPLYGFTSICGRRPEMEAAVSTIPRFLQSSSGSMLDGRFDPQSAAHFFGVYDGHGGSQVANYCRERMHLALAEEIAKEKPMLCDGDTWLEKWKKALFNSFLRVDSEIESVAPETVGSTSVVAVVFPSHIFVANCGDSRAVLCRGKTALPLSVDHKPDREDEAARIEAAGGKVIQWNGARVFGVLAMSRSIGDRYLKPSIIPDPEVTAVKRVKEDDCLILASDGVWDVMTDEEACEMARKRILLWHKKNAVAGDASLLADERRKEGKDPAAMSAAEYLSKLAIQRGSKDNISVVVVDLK
| Substitution | relative binding score |
| --- | --- |
| Q51T | 92.2% |
| E38C | 88.7% |
| I105S | 100% |
| T160K | 94.6% |
| Q31R | 98.9% |
| G23K | 96.9% |
| G23I | 83.2% |
| E128P | 114% |
| E127Y | 108% |
| I105W | -12.1% |
| F103V | 51.1% |
| R32A | 94.9% |
| R69L | 96.5% |
| G148I | 69.4% |
| E147W | 91.9% |
| I12P | 56.8% |
| T101P | -2.98% |

A few entries again (study 4):
| Substitution | relative binding score |
| --- | --- |
| R69L | 96.5% |
| I105W | -12.1% |
| F103V | 51.1% |
| E38C | 88.7% |
| Q31R | 98.9% |
| I105S | 100% |
| Q51T | 92.2% |
| T160K | 94.6% |
